Experimental data of several laboratories.
Numbered parts are unrelated; each lists some results of a single study. Substitutions count along the parent as printed.

Study 1
Target: Phosphate system positive regulatory protein PHO4, full length, GST-tagged (PHO4, Saccharomyces cerevisiae, UniProt P07270, residues 1-312)
Method: competition protein-binding microarray
Molecule type: double-stranded DNA, one strand shown
Matrix: in vitro
Tested at: 2 µM
Notes: whole 60-bp probe, lowest competitor level
With: Cbf1 competitor, 0.05 µM
Direction: higher = stronger binding
Constant ends, left off below: … GTCTTGATTCGCTTGACGCTGCTG
Target sequence (chain): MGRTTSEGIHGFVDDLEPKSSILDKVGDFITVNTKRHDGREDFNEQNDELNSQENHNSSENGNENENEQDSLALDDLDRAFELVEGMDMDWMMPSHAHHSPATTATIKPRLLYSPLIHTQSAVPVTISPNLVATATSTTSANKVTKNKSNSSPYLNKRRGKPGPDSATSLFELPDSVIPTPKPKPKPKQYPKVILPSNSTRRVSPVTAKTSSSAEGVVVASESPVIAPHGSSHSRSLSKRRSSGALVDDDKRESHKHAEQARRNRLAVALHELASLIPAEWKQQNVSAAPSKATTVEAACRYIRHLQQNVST
Sequence	fluorescence intensity [a.u.]
GCATAGTCATATCACCACGTGGAACATCATGAAAAA	20600
TCGCCGAAACCTTGAAGCATGACAAGAATTTATAGT	5860
AAAAACATTTCCTGTCACATGTTAGTAAAACAGAAA	11200
AAATTACTAAGTTGGGGCGTGGGTGACGCCGTATGA	8870
CTAACGAAGGTTTGTCACGACACTTACAAGCCAAGT	4690
TCTTGGTTCCAAAGCAGCGTGTTGAAGAGAGGAACC	5450
TTTCGATGGTTAGGCTTCGTGGGTAAAAAGTCGAGC	5780
CTTTCCCGATCTTGGTTCGTGGGTGTAGCACATTTG	7000
GTCTTGTCTCATTTTCACGTGGAATTCCCCACTTCA	8920
AAAGCGGTAATTTGCAACGTGGGTGCAGATATCTAT	14700
AAATTATAATTCGCTCTCATGATAACCACATCTGTC	3910
ATCCGGAGCCCTCCACGCCTGCTAGCTTTGTGTTGG	6570
TGTAGTTAAACAGTCCACGTGTATTTGACTGCAGTA	17500
CGGGGTTAAGTTTTTCACGTGTCTTGCTTGCAGCAG	12700
AATATTAAAGTTCACAACGTGAAGACCTTCCTTTCT	8430
ATACAACAAAGCGACCGCGTGACGGTTAGACAAGAC	9850

Study 2
Target: CCND1, cyclin fold, Cln2 fusion (human)
Method: yeast growth competition, sequencing
Matrix: yeast
Notes: weak parent motif
Baseline: not given
Direction: higher = stronger binding
Starting sequence: PKMYT1 docking peptide (human); SFEPRNLLSLFED
Change	normalised enrichment score
R5K F11L	0.327
N6R	0.822
L10P	1.14
P4H	1.47
S1H	0.102
E12P	0.888
L8G	0.464
N6F	1.91
E3F	0.0738
F11G	0.772
F11D	0.826
S1L	0.317
S1P	0.191
S9A	1.04
S9G	1.49
N6C	1.5
L7V	1.22
S1N	0.438
E3V	0.829
R5L	1.76
L8N	1.02
E3H	0.901
L7F	1.13
D13Y	1.11
P4W	0.521

Study 3
Target: PABPC1L2, full length, GST fusion (mouse, UniProt A0ABA7IW68)
Method: RNAcompete
Molecule type: RNA
Matrix: in vitro
Tested at: 20 nM
Notes: 7-mer, probes averaged, single round
Baseline: mean of 7-mers
Direction: higher = stronger binding
Residues (chain): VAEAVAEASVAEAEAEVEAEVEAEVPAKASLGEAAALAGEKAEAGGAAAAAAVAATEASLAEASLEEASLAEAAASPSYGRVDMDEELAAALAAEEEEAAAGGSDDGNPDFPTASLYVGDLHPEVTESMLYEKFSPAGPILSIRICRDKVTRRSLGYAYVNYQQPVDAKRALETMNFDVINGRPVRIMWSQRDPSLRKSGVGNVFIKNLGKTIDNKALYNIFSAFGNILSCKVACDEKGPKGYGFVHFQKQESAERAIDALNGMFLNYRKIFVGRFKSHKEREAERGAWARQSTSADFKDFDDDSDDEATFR
Sequence	7-mer Z-score
CUCCUCU	-0.329
ACAGAUU	-0.0591
ACCGUAU	-0.141
CCCACAU	-0.443
AGCCGGA	-0.0355
AGAGAAG	0.149
ACUUGUG	-0.242
CACGAAA	0.959
AUCUUAU	-0.26
UCGCCGC	-0.409
UUGGGCG	-0.0228
AUGUUGG	-0.235
GCCGAGC	-0.144

Study 4
Target: CEBPB, bZIP domain (human)
Method: DHFR protein complementation
Matrix: yeast
Notes: single substitutions, most at no-binding floor
Baseline: wild-type JUN-FOS pair
Direction: higher = stronger binding
Starting sequence: JUN, bZIP domain (human); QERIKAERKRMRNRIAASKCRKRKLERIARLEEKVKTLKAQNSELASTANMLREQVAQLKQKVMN; partner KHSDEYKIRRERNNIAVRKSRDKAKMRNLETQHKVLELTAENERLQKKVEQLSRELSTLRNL
Change	binding fitness [natural log]
A29W	-1.45
T37G	-1.4
L38K	-1.44
L45C	-1.55
Q41C	-1.48
R30S	-1.04
Q55S	-1.38
A49H	-1.44
S43Q	-1.08
A49V	-1.23
M51L	-1.27
V35T	-1.43
L45Q	-1.47

Excerpt of the above (study 3):
Sequence	7-mer Z-score
ACCGUAU	-0.141
CCCACAU	-0.443
AGCCGGA	-0.0355
AGAGAAG	0.149
ACUUGUG	-0.242
CACGAAA	0.959
AUCUUAU	-0.26
UCGCCGC	-0.409
UUGGGCG	-0.0228
